Values quoted from earlier work as cited in several papers.
Compare with care: the assays were run in different laboratories.
B1: CX3CL1, human; sequence looked up; chain QHHGVTKCNITCSKMTSKIPVALLIHYQQNQASCGKRAIILETRQHRLFCADPKEQWVKDAMQHLDRQAAALTRNGGTFEKQIGEVKPRTTPAAGGMDESVVLEPEATGESSSLEPTPSSQEAQRALGTSPELPTGVTGSSGTRLPPTPKAQDGGPVGTELFRVPPVSTAATWQSSAPHQPGPSLWAEAKTSEAPSTQDPSTQASTASSPAPEENAPSEGQRVWGQGQSPRPENSLEREEMGPVPAHTDAFQDWGPGSMAHVSVVPVSSEGTPSREPVASGSWTPKAEEPIHATMDPQRLGVLITPVPDAQAATRRQAVGLLAFLGLLFCLGVAMFTYQSLQGCPRKMAGEMAEGLRYIPRSCGSNSYVLVPV
B2: CCL4; sequence looked up; chain APMGSDPPTACCFSYTARKLPRNFVVDYYETSSLCSQPAVVFQTKRSKQVCADPSESWVQEYVYDLELN

| Substance | target or system | assay | system | conditions | quantity | value |
| --- | --- | --- | --- | --- | --- | --- |
| pegcetacoplan | – | – | cynomolgus monkey | daily, 7 days, non-GLP study | NOEL | > 20 mg/kg/day |
| CCL5 | US28 T12A | binding, radioligand competition | – | – | Kd | 2.3 nM |
| AEQNPIYWARYADWLFTTPLLLLDLALLVDADEGT (pHLIP (Halobacterium salinarum)) | – | NMR, refers to: Asp31 | peptide, lipid membrane | numbering of the source | pKa | 6.5 |
| B1 (CX3CL1, human) | US28 E13A | binding, radioligand competition | – | – | Kd | 0.5 nM |
| melittin | Klebsiella pneumoniae | – | ATCC 700603 | literature value | MIC | 12.5 µM |
| B2 (CCL4) | US28 D15A | binding, radioligand competition | – | – | Kd | 1.9 nM |
| enfortumab vedotin | – | – | monkey | – | Vdss | 0.07 to 0.08 L/kg |

Repeated from above:
| Substance | target or system | assay | system | conditions | quantity | value |
| --- | --- | --- | --- | --- | --- | --- |
| B1 (CX3CL1, human) | US28 E13A | binding, radioligand competition | – | – | Kd | 0.5 nM |
